Experimental data from different studies.
Lines come from different studies, so protocols differ. Numbers after ± are the reported error.
ribE: Riboflavin synthase (ribE, Mycobacterium tuberculosis, UniProt P9WK35)
UniProt P9WK35, sequence (whole entry, looked up): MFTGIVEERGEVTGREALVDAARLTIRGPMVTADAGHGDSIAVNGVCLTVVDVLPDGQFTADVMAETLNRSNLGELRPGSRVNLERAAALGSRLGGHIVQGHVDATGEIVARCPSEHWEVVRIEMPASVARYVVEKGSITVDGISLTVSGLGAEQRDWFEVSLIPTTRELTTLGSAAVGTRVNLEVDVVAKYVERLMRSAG
CNR2: Cannabinoid receptor 2 (CNR2, Homo sapiens, UniProt P34972)
UniProt P34972, sequence (whole entry, looked up): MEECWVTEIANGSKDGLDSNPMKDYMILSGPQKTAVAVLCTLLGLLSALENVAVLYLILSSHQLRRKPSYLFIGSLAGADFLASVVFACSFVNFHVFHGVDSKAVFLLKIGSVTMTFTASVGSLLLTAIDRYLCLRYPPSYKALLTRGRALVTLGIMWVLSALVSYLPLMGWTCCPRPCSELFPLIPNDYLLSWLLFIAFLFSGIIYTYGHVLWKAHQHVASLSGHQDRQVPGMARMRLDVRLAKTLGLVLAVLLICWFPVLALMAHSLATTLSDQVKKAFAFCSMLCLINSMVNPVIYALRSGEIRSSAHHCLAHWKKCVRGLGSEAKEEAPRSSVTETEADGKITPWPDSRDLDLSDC
OPRK1: Kappa-type opioid receptor (OPRK1, Homo sapiens, UniProt P41145)
UniProt P41145, sequence (whole entry, looked up): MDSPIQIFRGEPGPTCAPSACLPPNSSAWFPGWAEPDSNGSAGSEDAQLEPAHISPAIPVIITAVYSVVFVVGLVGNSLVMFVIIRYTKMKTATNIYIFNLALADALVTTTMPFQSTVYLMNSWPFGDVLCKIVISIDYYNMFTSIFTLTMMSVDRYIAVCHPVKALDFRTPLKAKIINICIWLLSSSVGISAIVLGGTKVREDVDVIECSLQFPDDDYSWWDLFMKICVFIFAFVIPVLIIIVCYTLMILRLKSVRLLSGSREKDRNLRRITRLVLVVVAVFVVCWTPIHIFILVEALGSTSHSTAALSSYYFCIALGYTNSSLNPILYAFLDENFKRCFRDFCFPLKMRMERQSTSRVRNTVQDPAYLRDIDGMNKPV
Type II NADH:quinone oxidoreductase Ndh: Type II NADH:quinone oxidoreductase Ndh (Mycobacterium tuberculosis, UniProt P95160)
UniProt P95160, sequence (whole entry, looked up): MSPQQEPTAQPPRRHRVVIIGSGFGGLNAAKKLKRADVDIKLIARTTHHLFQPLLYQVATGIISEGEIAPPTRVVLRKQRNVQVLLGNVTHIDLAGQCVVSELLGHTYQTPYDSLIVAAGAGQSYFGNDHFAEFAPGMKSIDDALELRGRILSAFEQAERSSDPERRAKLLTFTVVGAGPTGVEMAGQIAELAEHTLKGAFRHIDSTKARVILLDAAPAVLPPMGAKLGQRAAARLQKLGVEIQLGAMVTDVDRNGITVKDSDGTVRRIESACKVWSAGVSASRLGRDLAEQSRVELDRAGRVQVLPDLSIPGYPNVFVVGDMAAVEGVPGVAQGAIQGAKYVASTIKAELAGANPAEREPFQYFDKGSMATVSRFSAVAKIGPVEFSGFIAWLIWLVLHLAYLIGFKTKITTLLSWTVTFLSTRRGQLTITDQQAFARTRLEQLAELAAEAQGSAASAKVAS
ADRA2A: Alpha-2A adrenergic receptor (ADRA2A, Homo sapiens, UniProt P08913)
UniProt P08913, sequence (whole entry, looked up): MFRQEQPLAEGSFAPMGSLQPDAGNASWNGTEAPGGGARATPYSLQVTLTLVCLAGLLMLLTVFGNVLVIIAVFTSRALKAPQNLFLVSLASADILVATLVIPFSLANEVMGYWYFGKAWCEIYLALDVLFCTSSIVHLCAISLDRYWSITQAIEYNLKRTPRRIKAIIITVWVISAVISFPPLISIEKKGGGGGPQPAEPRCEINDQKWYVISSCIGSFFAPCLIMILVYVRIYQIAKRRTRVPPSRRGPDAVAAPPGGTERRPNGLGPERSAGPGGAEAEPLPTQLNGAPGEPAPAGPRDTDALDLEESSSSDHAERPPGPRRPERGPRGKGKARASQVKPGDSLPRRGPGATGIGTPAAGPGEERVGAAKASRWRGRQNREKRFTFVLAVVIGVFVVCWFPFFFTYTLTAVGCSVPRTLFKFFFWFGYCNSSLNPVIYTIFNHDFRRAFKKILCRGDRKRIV
fbpC: Diacylglycerol acyltransferase/mycolyltransferase Ag85C (fbpC, Mycobacterium tuberculosis, UniProt P9WQN9)
UniProt P9WQN9, sequence (whole entry, looked up): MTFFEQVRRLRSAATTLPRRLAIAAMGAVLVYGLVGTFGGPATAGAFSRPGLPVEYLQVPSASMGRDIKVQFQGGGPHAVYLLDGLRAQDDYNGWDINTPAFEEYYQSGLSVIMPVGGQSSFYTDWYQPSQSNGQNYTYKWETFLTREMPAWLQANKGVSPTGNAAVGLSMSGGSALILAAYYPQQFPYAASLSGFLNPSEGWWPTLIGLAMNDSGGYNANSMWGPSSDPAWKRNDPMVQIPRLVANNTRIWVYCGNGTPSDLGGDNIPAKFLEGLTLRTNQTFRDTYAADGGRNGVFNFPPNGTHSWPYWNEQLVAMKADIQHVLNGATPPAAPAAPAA
UniProt P18508, sequence (whole entry, looked up): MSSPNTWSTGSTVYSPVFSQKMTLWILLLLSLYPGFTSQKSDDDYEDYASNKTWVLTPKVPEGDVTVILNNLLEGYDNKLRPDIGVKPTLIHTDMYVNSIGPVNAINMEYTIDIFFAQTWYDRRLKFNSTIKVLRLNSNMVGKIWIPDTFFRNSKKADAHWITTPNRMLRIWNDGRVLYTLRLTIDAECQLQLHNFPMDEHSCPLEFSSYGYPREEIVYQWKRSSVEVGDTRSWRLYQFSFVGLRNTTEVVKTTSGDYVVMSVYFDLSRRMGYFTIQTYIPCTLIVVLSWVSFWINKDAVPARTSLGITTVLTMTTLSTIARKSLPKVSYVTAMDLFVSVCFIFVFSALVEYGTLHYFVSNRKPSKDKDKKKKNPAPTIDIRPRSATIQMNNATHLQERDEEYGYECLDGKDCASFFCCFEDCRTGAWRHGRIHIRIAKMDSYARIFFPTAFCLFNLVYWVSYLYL
UniProt P9WFK7, sequence (whole entry, looked up): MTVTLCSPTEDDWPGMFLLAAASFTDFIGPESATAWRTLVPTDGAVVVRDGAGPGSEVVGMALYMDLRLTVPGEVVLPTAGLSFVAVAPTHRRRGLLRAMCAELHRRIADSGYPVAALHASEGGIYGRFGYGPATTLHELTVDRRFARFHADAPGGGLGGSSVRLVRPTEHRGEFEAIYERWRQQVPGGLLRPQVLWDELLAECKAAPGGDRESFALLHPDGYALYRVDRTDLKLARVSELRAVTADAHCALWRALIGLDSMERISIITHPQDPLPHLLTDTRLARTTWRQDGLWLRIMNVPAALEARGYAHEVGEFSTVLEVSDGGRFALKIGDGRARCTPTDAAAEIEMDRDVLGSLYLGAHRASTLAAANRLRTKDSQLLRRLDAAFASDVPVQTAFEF
UniProt P23576, sequence (whole entry, looked up): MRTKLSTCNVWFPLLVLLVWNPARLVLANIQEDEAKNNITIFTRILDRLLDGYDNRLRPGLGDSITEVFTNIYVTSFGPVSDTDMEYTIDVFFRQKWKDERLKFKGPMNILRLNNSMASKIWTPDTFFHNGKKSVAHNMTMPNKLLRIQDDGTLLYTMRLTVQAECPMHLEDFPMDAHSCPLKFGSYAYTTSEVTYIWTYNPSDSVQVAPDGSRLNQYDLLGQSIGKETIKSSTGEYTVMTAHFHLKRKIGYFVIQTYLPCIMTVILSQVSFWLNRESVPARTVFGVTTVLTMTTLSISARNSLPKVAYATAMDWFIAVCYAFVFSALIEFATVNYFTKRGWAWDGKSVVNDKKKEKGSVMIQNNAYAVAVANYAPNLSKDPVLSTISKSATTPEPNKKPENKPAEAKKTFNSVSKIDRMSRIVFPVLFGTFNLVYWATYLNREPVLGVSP
UniProt P9WIU7, sequence (whole entry, looked up): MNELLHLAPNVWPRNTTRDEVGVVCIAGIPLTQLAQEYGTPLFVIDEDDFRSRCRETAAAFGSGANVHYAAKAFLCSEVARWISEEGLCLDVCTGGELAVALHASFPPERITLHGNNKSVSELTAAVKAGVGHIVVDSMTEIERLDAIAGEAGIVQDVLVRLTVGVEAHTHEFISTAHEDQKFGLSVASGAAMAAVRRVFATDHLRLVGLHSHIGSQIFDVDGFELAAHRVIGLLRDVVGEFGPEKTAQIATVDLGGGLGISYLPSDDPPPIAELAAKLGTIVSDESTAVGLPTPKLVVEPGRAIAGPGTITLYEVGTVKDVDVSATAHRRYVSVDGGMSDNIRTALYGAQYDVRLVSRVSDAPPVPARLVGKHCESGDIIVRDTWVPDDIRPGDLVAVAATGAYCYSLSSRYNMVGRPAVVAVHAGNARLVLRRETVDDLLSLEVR
UniProt P9WNX3, sequence (whole entry, looked up): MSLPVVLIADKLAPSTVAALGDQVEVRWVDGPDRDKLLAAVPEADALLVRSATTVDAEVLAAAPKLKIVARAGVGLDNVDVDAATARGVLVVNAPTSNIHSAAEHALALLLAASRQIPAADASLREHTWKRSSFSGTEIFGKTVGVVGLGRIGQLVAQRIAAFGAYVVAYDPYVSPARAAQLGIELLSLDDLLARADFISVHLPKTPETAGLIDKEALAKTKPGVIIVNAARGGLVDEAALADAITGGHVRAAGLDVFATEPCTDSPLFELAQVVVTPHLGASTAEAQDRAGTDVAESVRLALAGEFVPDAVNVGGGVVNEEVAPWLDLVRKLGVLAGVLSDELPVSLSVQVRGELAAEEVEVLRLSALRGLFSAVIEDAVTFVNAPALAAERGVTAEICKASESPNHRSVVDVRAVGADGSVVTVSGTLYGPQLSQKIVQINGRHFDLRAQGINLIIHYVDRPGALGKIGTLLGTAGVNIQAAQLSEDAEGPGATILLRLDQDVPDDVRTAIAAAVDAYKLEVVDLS
UniProt P35372, sequence (whole entry, looked up): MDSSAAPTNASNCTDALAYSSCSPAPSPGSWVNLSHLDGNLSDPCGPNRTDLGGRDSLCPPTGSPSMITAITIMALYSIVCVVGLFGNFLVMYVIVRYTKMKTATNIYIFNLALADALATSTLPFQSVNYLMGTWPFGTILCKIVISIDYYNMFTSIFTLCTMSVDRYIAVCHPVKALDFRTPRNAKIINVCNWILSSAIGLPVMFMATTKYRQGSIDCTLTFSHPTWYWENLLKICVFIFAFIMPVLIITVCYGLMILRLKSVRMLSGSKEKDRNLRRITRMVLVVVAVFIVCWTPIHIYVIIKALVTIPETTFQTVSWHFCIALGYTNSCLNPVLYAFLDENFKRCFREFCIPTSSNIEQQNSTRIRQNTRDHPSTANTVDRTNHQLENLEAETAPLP

| Molecule | target | assay | test system | conditions | scale | quantity | result |
| --- | --- | --- | --- | --- | --- | --- | --- |
| O=C1c2c(O)ccc(O)c2C(=O)c2c(NCCNCCO)ccc(NCCNCCO)c21 | 4'-phosphopantetheinyl transferase PptT (Mycobacterium tuberculosis, UniProt O33336) | inhibitor |  | concentration not given |  | enzyme activity | inactive |
| O=c1[nH]c(/C=C/c2cccc(O)c2O)c([N+](=O)[O-])c(=O)[nH]1 | ribE | enzyme activity, substrate | Mycobacterium tuberculosis, recombinant riboflavin synthase | pH 7.0 |  | Ks | 7.2 ± 1 µM |
| CCCCCCC1(c2cc(O)c3c(c2)OC(C)(C)[C@@H]2CCC(=O)C[C@@H]32)CCC1 | Cannabinoid receptor 1 (Cnr1, Rattus norvegicus, UniProt P20272) | binding |  |  | relative to: Ki CB2 mouse over CB1 rat | selectivity ratio | 16 fold |
| CN1C(=O)CN=C(c2ccccc2)c2cc(Cl)ccc21 | Gabrg2/Gabra2, with β3 subunit (Rattus norvegicus, UniProt P18508+P23576) | GABA-induced chloride current, two-electrode voltage clamp | Xenopus oocytes | with: GABA at EC3 |  | Emax | 532 ± 20% |
| Cc1ncc2n1-c1ccc(Cl)cc1C(c1ccccc1F)=NC2 | rat CYP3A | 4-hydroxylation, substrate | liver microsomes | 10 min, 37 °C, 3-week-old control rats |  | Km | 11.1 ± 4.71 µM |
| CCCCCCCCCCC[C@@H](C[C@@H]1OC(=O)[C@H]1CCCCCC)OC(=O)[C@H](CC(C)C)NC=O | Polyketide synthase Pks13, thioesterase domain (pks13, Mycobacterium tuberculosis, UniProt I6X8D2) | thioesterase activity, inhibitor |  | 100 µM, 1 h preincubation | relative to: uninhibited | remaining activity | ~30% |
| O=C(NCC1CCCCC1)c1nn(Cc2ccc(F)cc2)c2ccccc12 | CNR2 | calcium mobilization, agonist | CHO-K1 expressing Gαq16 |  | relative to: CP55,940 maximum | Emax | 78 ± 6% |
| CN1CCN(C(=O)OC2c3nccnc3C(=O)N2c2ccc(Cl)cn2)CC1 (centres unmarked) | Gabrg2/Gabra5, with β3 subunit (Rattus norvegicus, UniProt P18508+P19969) | GABA-induced chloride current, two-electrode voltage clamp | Xenopus oocytes | with: GABA at EC3 |  | Emax | 345 ± 22% |
| CN(C(=O)/C=C/c1ccoc1)[C@@H]1CC[C@@]2(O)[C@H]3Cc4cccc5c4[C@@]2(CCN3CC2CC2)[C@H]1O5 | OPRK1 | G protein activation, agonist, GloSensor cAMP | HEK293T | concentration not given | relative to: U50488H | log relative intrinsic activity | 0.17 ± 0.06 |
| N[C@@H](CO)C(=O)O | D-3-phosphoglycerate dehydrogenase (serA, Mycobacterium tuberculosis, UniProt P9WNX3) | enzyme activity, inhibitor |  | pH 7.5, 200 mM potassium phosphate, with: substrate about 400 µM |  | Hill coefficient | 1.6 ± 0.1 |
| NC(=O)[C@H](Cc1ccccc1)NC(=O)c1nn(Cc2ccc(F)cc2)c2ccccc12 | CNR2 | calcium mobilization, agonist | CHO-K1 expressing Gαq16 |  | relative to: CP55,940 maximum | Emax | 66 ± 8% |
| CN(C(=O)/C=C/c1ccoc1)[C@@H]1CC[C@@]2(O)[C@H]3Cc4ccc(O)c5c4[C@@]2(CCN3CC2CC2)[C@H]1O5 | OPRK1 | beta-arrestin 2 recruitment, agonist, Tango | HEK293 | concentration not given | relative to: U50488H | log relative intrinsic activity | 0.28 ± 0.02 |
| COC(=O)[C@H]1[C@@H](c2ccc(Cl)c(Cl)c2)C[C@@H]2CC[C@H]1N2CCOCCOCCNC(=O)c1ccc(C(=O)[O-])c(-c2c3ccc(=[N+]4CCC4)cc-3oc3cc(N4CCC4)ccc23)c1 | Sodium-dependent dopamine transporter (SLC6A3, Homo sapiens, UniProt Q01959) | dSTORM, DBSCAN clustering | CAD expressing SLC6A3 | 10 nM |  | fraction in nanodomains | 0.37 |
| CC(C)(NC(=O)c1nn(Cc2ccc(F)cc2)c2ccccc12)C(N)=O | CNR2 | calcium mobilization, agonist | CHO-K1 expressing Gαq16 |  | relative to: CP55,940 maximum | Emax | 61 ± 6% |
| O=c1[nH]c(CCc2ccc(O)cc2)c([N+](=O)[O-])c(=O)[nH]1 | ribE | enzyme activity, substrate | Mycobacterium tuberculosis, recombinant riboflavin synthase | pH 7.0 |  | Ks | 8.5 ± 0.4 µM |
| NC(=S)c1ccc[n+]([C@@H]2O[C@H](COP(=O)([O-])OP(=O)(O)OC[C@H]3O[C@@H](n4cnc5c(N)ncnc54)[C@H](O)[C@@H]3O)[C@@H](O)[C@H]2O)c1 | Type II NADH:quinone oxidoreductase Ndh | transhydrogenase activity, substrate |  | with: NADH |  | Km | 20 ± 3 µM |
| O=C(NC1CCCCC1)c1nn(Cc2ccc(F)cc2)c2ccccc12 | CNR2 | calcium mobilization, agonist | CHO-K1 expressing Gαq16 |  | relative to: CP55,940 maximum | Emax | 95 ± 3% |
| COC(=O)/C=C/C(=O)N[C@@H]1CC[C@@]2(O)[C@H]3Cc4ccc(O)c5c4[C@@]2(CCN3CC2CC2)[C@H]1O5 | Mu-type opioid receptor (OPRM1, Homo sapiens, UniProt P35372) | radioligand competition | CHO transfected |  | relative to: human over rhesus MOR | Ki ratio | 2.9 |
| C[C@H]1N=C(c2ccccc2F)c2cc(Br)ccc2NC1=O | ADRA2A | ligand displacement, radioligand |  | 10 µM |  | inhibition | 11% |

| Molecule | target | assay | test system | conditions | scale | quantity | result |
| --- | --- | --- | --- | --- | --- | --- | --- |
| O=c1c2ccccc2[se]n1C1CCCCC1 | fbpC | inhibitor, resorufin butyrate fluorescence |  | 5 µM, 40 min preincubation | relative to: untreated | remaining activity | 44 ± 15% |
| CCCN(CCC)[C@@H]1CCc2ccc(O)cc2C1 | dopamine D2/D3 receptor | competitor, in vitro autoradiography | rabbit brain slices | 10 µM, with: 18F-fallypride |  | radioligand displacement | > 90% |
| COc1ccc2c(c1)[C@]13CCCC[C@@H]1[C@H](C2)N(C)CC3 | CYP2D (rat) | substrate, measured: dextrorphan | saline-treated rats, rat liver microsomes | pH 7.4, 37 °C, high-affinity component |  | Km | 1.08 ± 0.3 µM |
| COc1ccc(N(C)S(=O)(=O)c2ccc3[nH]c(=O)c(=O)[nH]c3c2)cc1 | N-acetyltransferase Eis (eis, Mycobacterium tuberculosis, UniProt P9WFK7) | inhibitor, HTS |  | 20 µM |  | activity class | inactive |
| CC1N=C(c2ccccc2F)c2cc(NC(C)(C)C)ccc2NC1=O (centres unmarked) | ADRA2A | ligand displacement, radioligand |  | 10 µM |  | inhibition | 6% |
| CC(C)[C@@H]1NC(=O)[C@@H]2CSSC[C@H](NC(=O)[C@@H](N)CCCCN)C(=O)N[C@@H](CCCNC(=N)N)C(=O)N[C@@H](CCC(=O)O)C(=O)N[C@H]3CSSC[C@H](NC(=O)[C@H](CCCCN)NC(=O)CNC(=O)[C@H](CC(N)=O)NC1=O)C(=O)N[C@@H](C(C)C)C(=O)N[C@H](C(=O)N1CCC[C@H]1C(=O)N[C@@H](C)C(=O)O)CSSC[C@H](NC(=O)[C@H](CO)NC(=O)[C@@H]1CCCN1C(=O)[C@H](CO)NC(=O)[C@H]([C@@H](C)O)NC(=O)[C@H](CC(N)=O)NC(=O)CNC3=O)C(=O)N[C@@H](Cc1ccc(O)cc1)C(=O)N[C@@H](Cc1ccccc1)C(=O)N[C@@H](CO)C(=O)NCC(=O)N[C@@H](CC(N)=O)C(=O)N2 | Potassium voltage-gated channel subfamily A member 2 (KCNA2, Homo sapiens, UniProt P16389) | whole-cell patch clamp, voltage ramp | CHO cells | 2 nM, 200 ms ramp, equilibrium block |  | activation threshold voltage | ~-23 mV |
| C=CCn1[se]c2ccccc2c1=O | fbpC | inhibitor, resorufin butyrate fluorescence |  | 5 µM, 40 min preincubation | relative to: untreated | remaining activity | 15 ± 2% |
| CC1(C)Oc2cc([C@]34CC5CC(C[C@@](CN=C=S)(C5)C3)C4)cc(O)c2[C@@H]2C[C@H](O)CC[C@H]21 | CNR2 | radioligand binding Bmax reduction | HEK293 membranes | 10-fold Ki, with: [3H]CP-55,940 | relative to: untreated | covalent labeling | 74% |
| N[C@@H](CCC[C@H](N)C(=O)O)C(=O)O | Diaminopimelate decarboxylase (lysA, Mycobacterium tuberculosis, UniProt P9WIU7) |  |  |  | relative to: compound over D,D-DAP | binding affinity ratio | ~40 fold |
| Nc1ncnc2c1ncn2[C@@H]1O[C@H](COP(=O)(O)O)[C@@H](O)[C@H]1O | Adenylate kinase isoenzyme 1 (AK1, Homo sapiens, UniProt P00568) | substrate, coupled spectrophotometric |  |  | relative to: kcat of compound with human AK1 | relative Vmax | 100% |
| O=c1c2ccccc2[se]n1C1CCCC1 | fbpC | inhibitor, resorufin butyrate fluorescence |  | 5 µM, 40 min preincubation | relative to: untreated | remaining activity | 40 ± 17% |
| CCCCCc1cc(O)c2c(c1)OC(C)(C)[C@@H]1CCC(C)=C[C@@H]21 | Cannabinoid receptor 1 (Cnr1, Mus musculus, UniProt P47746) | G protein activation, agonist | ICR mouse, female, cerebellar membranes |  | relative to: basal binding | Emax | 69% |
| β-endorphin | water-soluble µ-opioid receptor human | binding, graphene microelectrode Faradaic current | 1× PBS | concentration not given, pH 7.4 |  | response amplitude | -0.89 ± 0.03 pA |
| C[C@]12CCC(=O)CC1=CC[C@@H]1[C@@H]2CC[C@]2(C)C(=O)CC[C@@H]12 | 3 beta-hydroxysteroid dehydrogenase/Delta 5-->4-isomerase type 2 (HSD3B2, Homo sapiens, UniProt P26439, P195R) | substrate |  |  |  | Km | 102 µM |
| CC(=O)O[C@H]1CC[C@@]2(C)C(=CC[C@@H]3[C@@H]2CC[C@]2(C)C(=O)CC[C@@H]32)C1 | Sodium channel protein type 10 subunit alpha (SCN10A, Homo sapiens, UniProt Q9Y5Y9) | sodium influx, inhibitor, FLIPR | HEK293 | 10 µM, with: deltamethrin 10 µM |  | inhibition | 101% |
| CN(CC(N)=O)C(=O)C(C)(C)NC(=O)c1nn(Cc2ccc(F)cc2)c2ccccc12 | CNR2 | calcium mobilization, agonist | CHO-K1 expressing Gαq16 |  | relative to: CP55,940 maximum | Emax | 77 ± 3% |
| NC(=O)C1=CN([C@@H]2O[C@H](COP(=O)(O)OP(=O)(O)OC[C@H]3O[C@@H](n4cnc5c(N)ncnc54)[C@H](O)[C@@H]3O)[C@@H](O)[C@H]2O)C=CC1 | Type II NADH:quinone oxidoreductase Ndh | substrate |  | with quinone acceptors |  | Km | ~150 µM |
| NC(=O)[C@@H](NC(=O)c1nn(Cc2ccc(F)cc2)c2ccccc12)c1ccccc1 | CNR2 | calcium mobilization, agonist | CHO-K1 expressing Gαq16 |  | relative to: CP55,940 maximum | Emax | 69 ± 10% |
| O=c1[nH]c(/C=C/c2ccccc2O)c([N+](=O)[O-])c(=O)[nH]1 | ribE | enzyme activity, substrate | Mycobacterium tuberculosis, recombinant riboflavin synthase | pH 7.0 |  | Ks | 63 ± 6 µM |

Some of these lines once more:
| Molecule | target | assay | test system | conditions | scale | quantity | result |
| --- | --- | --- | --- | --- | --- | --- | --- |
| O=C(NCC1CCCCC1)c1nn(Cc2ccc(F)cc2)c2ccccc12 | CNR2 | calcium mobilization, agonist | CHO-K1 expressing Gαq16 |  | relative to: CP55,940 maximum | Emax | 78 ± 6% |
| CC1(C)Oc2cc([C@]34CC5CC(C[C@@](CN=C=S)(C5)C3)C4)cc(O)c2[C@@H]2C[C@H](O)CC[C@H]21 | CNR2 | radioligand binding Bmax reduction | HEK293 membranes | 10-fold Ki, with: [3H]CP-55,940 | relative to: untreated | covalent labeling | 74% |
| C[C@]12CCC(=O)CC1=CC[C@@H]1[C@@H]2CC[C@]2(C)C(=O)CC[C@@H]12 | 3 beta-hydroxysteroid dehydrogenase/Delta 5-->4-isomerase type 2 (HSD3B2, Homo sapiens, UniProt P26439, P195R) | substrate |  |  |  | Km | 102 µM |
